Experimental data gathered from unrelated publications.
Each numbered part is a random draw from the data of one study; scales do not carry over between parts.

Study 1
Target: RNA binding protein fox-1 homolog 2, RRM domain, GST-SBP tag (RBFOX2, Homo sapiens, UniProt O43251-10, residues 100-194)
Technique: RNA Bind-n-Seq
Form: RNA
Sample: in vitro
Concentration: 365 nM
Setting: natural RNA segment, single round, ends assumed
Relative to: no-protein control
Direction: higher = stronger binding
Measurement: RBNS enrichment (R)
Residues (chain): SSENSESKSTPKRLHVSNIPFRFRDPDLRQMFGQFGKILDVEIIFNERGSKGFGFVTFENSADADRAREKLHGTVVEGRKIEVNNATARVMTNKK
Oligonucleotide = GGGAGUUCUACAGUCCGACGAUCUAAAAUAAUUUGCUAACUAACUAUUUUGAUUCUUCAGAGAGAACUACUAAUAAAAAUCUAAAAGGUAUGUCUUGGUGUGAUAACUUCUUUAUUACCAAGGCUGUUUUAUGUGGAAUUCUCGGGUGCCAA; value = 0.527
Oligonucleotide = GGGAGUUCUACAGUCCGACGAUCUUUGUUUAGACGAGAUCAUACCGGUAAAGCAGGAAUGACAAAGCUUGCUUUUCUGGUAUGUUCUAGGUGUAUUGUGACUUUUACUGUUAUAUUAAUUGCCAAUAUAAGUAUGGAAUUCUCGGGUGCCAA; value = 0.356
Oligonucleotide = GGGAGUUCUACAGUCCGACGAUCAAAGCAGAGGAACGGAAAGGGAAAGGGCCAGGUCAUCCUCAGCCACAUAGUGAGUCCAAGGUCGGCCUGGACUGCACGAGAGUCUGUCUAGGAAUGCAGUUAGUAAAAGCUGGAAUUCUCGGGUGCCAA; value = 1.28
Oligonucleotide = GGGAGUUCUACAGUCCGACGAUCAACCACCAAAAGGCCAGUGCCUCAACUCUUGAUUCUGAUGAGGUUUCUGGGAAGAGAUCAAAAUGGAGUCUCCUUACCAUGGACAAUACAUGCAAAGCAAUAUCUUGUUCUGGAAUUCUCGGGUGCCAA; value = 0.324
Oligonucleotide = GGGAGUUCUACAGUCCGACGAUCUUUACUGCACUUCACAAGGUUCUAAGAUGUGGAGAGUUCACUUGGAUUGCAGUAGCCCAUUGGUUGUUCAUAUAUUUAAAUAAAAUGGUCUACAAACUAUUUUUCAAACAUGGAAUUCUCGGGUGCCAA; value = 0.992
Oligonucleotide = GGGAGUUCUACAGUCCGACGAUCUCUCCUGCUCUGAGUUCACUCUGUGCCUCCAUUUGCAUUUUGCUUAGUUGAUCCGGUUUCUCUGUUCUGACAAGGUGGAAAACUGGUAAGCAUCUCAGAUCUGCAGUAUUUGGAAUUCUCGGGUGCCAA; value = 0.461
Oligonucleotide = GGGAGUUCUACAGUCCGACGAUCAGGUGUUACCCAGAGAGGUGCCUCUGCUGUGCUUCCUGCCUCCAUCACUUUCCUAGGGCCUCCGUGAGGGCUGAGAACAGCUCUGCUCUGCUCCUGUAUUAUUAACUUGCUGGAAUUCUCGGGUGCCAA; value = 0.485
Oligonucleotide = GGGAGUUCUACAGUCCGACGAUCUAUGUUGGUUUAGCGUUGUUUUGUGGAUAAGAAAAAUGCUUGACCCUGAAAUAUUUUCUACUUUAAAUUGUGGAUGAAGACCCUAUCUCCCACAAAUAAGUUCCCAUUUCUGGAAUUCUCGGGUGCCAA; value = 2.04
Oligonucleotide = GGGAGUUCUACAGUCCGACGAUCAAUUUCUAGAAAUGUAUCCUUCUCACAAAGUAGAGACCAAGAGAAAAACUCAUUGAUUGGGUUUCUACUUCUUUCAAGGACUCAGGAAAUUUCACUUUGAACUGAGGCCAUGGAAUUCUCGGGUGCCAA; value = 0.461

Study 2
Target: Ras GTPase-activating protein-binding protein 1, C-terminal RGG region (G3BP1, Homo sapiens, UniProt Q13283)
Sequence of UniProt Q13283 (whole entry, looked up): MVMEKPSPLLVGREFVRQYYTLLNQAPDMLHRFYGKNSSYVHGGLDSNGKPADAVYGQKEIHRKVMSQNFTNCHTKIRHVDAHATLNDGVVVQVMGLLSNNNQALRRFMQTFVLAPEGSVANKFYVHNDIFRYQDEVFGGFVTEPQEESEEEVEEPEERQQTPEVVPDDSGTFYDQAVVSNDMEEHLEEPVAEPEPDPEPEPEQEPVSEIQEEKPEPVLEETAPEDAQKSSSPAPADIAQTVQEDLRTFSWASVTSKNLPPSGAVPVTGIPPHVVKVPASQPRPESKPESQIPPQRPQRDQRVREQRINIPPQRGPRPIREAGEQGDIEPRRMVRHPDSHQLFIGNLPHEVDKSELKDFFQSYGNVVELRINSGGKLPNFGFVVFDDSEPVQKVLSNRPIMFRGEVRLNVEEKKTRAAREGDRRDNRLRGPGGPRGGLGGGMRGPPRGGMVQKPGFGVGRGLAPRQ
Technique: RNA Bind-n-Seq
Form: RNA
Sample: in vitro
Concentration: 1 µM
Setting: whole 134-nt RNA, ends assumed
Added: 150 mM KCl
Relative to: input library
Direction: higher = stronger binding
Measurement: log2 enrichment
Oligonucleotide = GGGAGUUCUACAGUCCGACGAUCGUCCUGUGCUACACAUCGUAUGUACCGAAUCGGGGAAAGGGGUUUUUGGGGAAAGGGGAAAGUAUUAUGUUACGCCGUUCGGAUCUGCACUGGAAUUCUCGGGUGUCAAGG; value = 2.36
Oligonucleotide = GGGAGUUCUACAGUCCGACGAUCAAGUCCUGUGCUACACAUCGUAUGUACCGAAUCGGGUUUGGGAAAAAGGGAAAGGGAAAGUAUUAUGUUACGCCGUUCGGAUCUGCACUUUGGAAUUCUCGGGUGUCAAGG; value = 1.64
Oligonucleotide = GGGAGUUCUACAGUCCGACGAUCUCCUGUGCUACACAUCGUAUGUACCGAAUCGGGGUGGGGUUUUUGGGGUUUUUUUGGGGAAAGUAUUAUGUUACGCCGUUCGGAUCUGCAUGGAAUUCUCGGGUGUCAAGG; value = 1.14
Oligonucleotide = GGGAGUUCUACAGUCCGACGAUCACCAUGCAGGUGGGCAUCUUUGGGAAGUGGGGCAAGGGGGGGAUAGGGAGGGUGGUAACACUUUGGGAACAGGUGGUCCCAGGUCGUUUCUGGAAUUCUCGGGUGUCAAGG; value = 2.09
Oligonucleotide = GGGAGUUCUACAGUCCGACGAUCAGUCCUGUGCUACACAUCGUAUGUACCGAAUCAAACCCAAACCCCCAAAUUUUUAAAAAAGUAUUAUGUUACGCCGUUCGGAUCUGCACUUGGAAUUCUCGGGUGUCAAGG; value = -0.876
Oligonucleotide = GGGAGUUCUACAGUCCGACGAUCGCAGGAAGUAAAAACAAAUGGAAAUGCUUCGGAUAGUGGCAGGGGUGGGGGUUGCUAAGGAAAGGGUAAAAUGGGAGUGGGUAAAGAGUUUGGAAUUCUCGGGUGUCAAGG; value = 1.6
Oligonucleotide = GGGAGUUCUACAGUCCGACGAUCAGUCCUGUGCUACACAUCGUAUGUACCGAAUCAAAUUUAAAUUUUUAAAUUUUUAAAAAAGUAUUAUGUUACGCCGUUCGGAUCUGCACUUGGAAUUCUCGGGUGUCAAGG; value = -2.7
Oligonucleotide = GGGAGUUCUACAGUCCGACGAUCUCCUGUGCUACACAUCGUAUGUACCGAAUCGGGGUUUUUGGGGAAAGGGGAAAAAGGGGAAAGUAUUAUGUUACGCCGUUCGGAUCUGCAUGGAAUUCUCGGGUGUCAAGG; value = 1.83
Oligonucleotide = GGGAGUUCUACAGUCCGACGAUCGUCCUGUGCUACACAUCGUAUGUACCGAAUCGGUUUUUGGGUUUUUGGGUUUUUGGGGAAAGUAUUAUGUUACGCCGUUCGGAUCUGCACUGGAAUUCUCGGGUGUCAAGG; value = -0.666
Oligonucleotide = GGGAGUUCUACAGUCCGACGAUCACCAUGCAGGUGGGCAUCUUUGGGAAGUGGGGCAAGGGGGGGAUAGGGAGGGGGGUAGCACUUUGGGAACAGGUGGUCCCAGGUCGUUUCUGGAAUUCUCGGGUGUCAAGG; value = 2.31

Study 3
Target: RING finger protein unkempt homolog, zinc fingers 1-6, GST-SBP tag (UNK, Homo sapiens, UniProt Q9C0B0, residues 30-357)
Sequence of UniProt Q9C0B0 (30-357, looked up): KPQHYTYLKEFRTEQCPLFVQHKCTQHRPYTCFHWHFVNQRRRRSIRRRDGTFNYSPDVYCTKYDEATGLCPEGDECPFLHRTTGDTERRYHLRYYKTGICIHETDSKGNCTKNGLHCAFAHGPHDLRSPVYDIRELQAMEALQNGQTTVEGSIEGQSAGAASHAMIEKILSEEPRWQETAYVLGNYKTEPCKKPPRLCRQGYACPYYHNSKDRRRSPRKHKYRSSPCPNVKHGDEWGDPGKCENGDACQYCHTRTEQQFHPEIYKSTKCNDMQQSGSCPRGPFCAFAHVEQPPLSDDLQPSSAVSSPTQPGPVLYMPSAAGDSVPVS
Technique: RNA Bind-n-Seq
Form: RNA
Sample: in vitro
Concentration: not given
Setting: RNA with constant flanks, human-mouse chimeric sites, ends assumed
Relative to: input RNA pool
Direction: higher = stronger binding
Measurement: bound/input enrichment
Oligonucleotide = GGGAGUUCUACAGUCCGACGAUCAUUCCGAUUAUGGACACCGGUGAAAACCCAGAGGUUCCCUUCCCCCGGGACAUGAUCGACUUAGAGGCCAAUUUUGAGAAGAUUGAAAAUGAACUGAAGGAAAUCAACACAAACCAGGAACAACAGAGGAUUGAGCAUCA; value = 0.108 ratio
Oligonucleotide = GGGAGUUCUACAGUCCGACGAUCGACUUUGGAACUGGUCCUCGUAAUGCAGCCUUCUAUAGCCCUCAUGGACAUAUAUUAGUGCUGGCUGGAUUUGGAAAUCUUCGAGGACAAAUGGAAGUAUGGGAUGUUAAAAACUACAAGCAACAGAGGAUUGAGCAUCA; value = 0.308 ratio
Oligonucleotide = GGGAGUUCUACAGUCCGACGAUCUCCCAAAUCCAGCAGCUAGAAGGAGCCUUGAGACAAACACUCCACACGCAGGGAGGGCGAUAACAUUGUACAUUGGUUUACAUUUUUCUCCUUGAAUGAUUUUUCUAGAGGUCAUAGUGCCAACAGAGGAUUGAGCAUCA; value = 0.335 ratio
Oligonucleotide = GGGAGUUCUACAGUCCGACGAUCGACUUGGGACCGUCCUGGCUAGUGCAAAAUAGCGGCAGUGGAGGCUCGAGAGGAAAGUUUGUUAGUGGAGGCAGUGGUAGAGGCCGUCAUGUACGGUCCUUUACUCGAUAGAUGUGUUCUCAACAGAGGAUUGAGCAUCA; value = 0.62 ratio
Oligonucleotide = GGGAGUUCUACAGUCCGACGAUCCUUAAUGAUAUUUUGAGUGAAUAAAUGAAGCUAAAAUGUCUGCUUUUGGUACUACAUGCAUUAAUAAAAGGUUAAGUUUUGUUUUCCACUGAAGUACUAUUUAACAUCUCAGAAAAAAACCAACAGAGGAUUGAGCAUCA; value = 0.169 ratio
Oligonucleotide = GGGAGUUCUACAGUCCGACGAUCAGAGAAAUGAGAAAGAAUCUUACACAAGAUGAGAUGCAAAGAAUGUCUACUAGAGUCCUUUUGGCGACUCUUUCCAUUCCUAUUACUCCUGAGCGAACUGAUAUUGCUCGACUUCUGGAUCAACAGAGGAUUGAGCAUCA; value = 0.325 ratio
Oligonucleotide = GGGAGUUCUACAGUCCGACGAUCGAGCGUCUCGCUCGAACUGGGAUCAUCGUGACCACUAGUGAGGCUGUCCUCCUACAGCUGGUGGCUGAUAAGGACCACCCGAAGUUCAAGGAAAUUCAGAACCUAAUUAAGGCGAGUGCCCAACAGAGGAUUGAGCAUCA; value = 0.145 ratio
Oligonucleotide = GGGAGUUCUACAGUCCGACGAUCAAAGUGGACUAUGGCGAGUACAUGGAUAAAAAUAAUGUGAGGCGGCAAGCAACAACAAUCAUAGCUGAUAACAUUAUAUUUCUGAGUGACCAGACAAAAGAGAAGGAAUAGAACGGAUGACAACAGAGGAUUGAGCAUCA; value = 1.45 ratio

Study 4
Target: Centromere-binding protein 1, full length, N-terminal tag (CBF1, Saccharomyces cerevisiae, UniProt P17106, residues 1-351)
Sequence of UniProt P17106 (whole entry, looked up): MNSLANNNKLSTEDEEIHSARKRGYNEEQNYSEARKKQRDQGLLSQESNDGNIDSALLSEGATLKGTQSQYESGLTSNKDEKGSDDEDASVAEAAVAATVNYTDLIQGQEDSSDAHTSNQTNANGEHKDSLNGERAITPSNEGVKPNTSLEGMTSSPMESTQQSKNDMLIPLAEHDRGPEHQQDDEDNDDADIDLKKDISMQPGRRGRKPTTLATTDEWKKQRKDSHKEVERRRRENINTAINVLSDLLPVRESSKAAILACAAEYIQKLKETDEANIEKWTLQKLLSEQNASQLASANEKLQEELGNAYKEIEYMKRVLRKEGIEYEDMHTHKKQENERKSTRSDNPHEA
Technique: protein-binding microarray
Form: double-stranded DNA, one strand shown
Sample: in vitro
Concentration: 0.8 µM
Setting: whole 60-bp probe, no competitor
Direction: higher = stronger binding
Measurement: fluorescence intensity
Oligonucleotide = CTAGTCAAAAAGTGTCAATCACCTGGATGCATATTCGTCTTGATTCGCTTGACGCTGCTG; value = 739 a.u.
Oligonucleotide = CTATATAATTCTCATCGTGATTTACTAGGTAAATTCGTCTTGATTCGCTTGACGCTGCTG; value = 596 a.u.
Oligonucleotide = GAATATACTTTATGTCTCGTGGGCATAAAAAGCTAGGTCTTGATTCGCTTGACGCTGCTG; value = 820 a.u.
Oligonucleotide = CCTAACTACTATAGTAACGTGGGATAGCTTCGTACAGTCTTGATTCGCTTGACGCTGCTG; value = 549 a.u.
Oligonucleotide = GAAGGAAAGCAAAGGAACGTGTTTTAATTGATGTAGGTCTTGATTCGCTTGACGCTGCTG; value = 591 a.u.
Oligonucleotide = TGTACGAAGCTATGAGGCATGATTATAGTAGTTAGGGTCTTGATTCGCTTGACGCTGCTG; value = 546 a.u.
Oligonucleotide = GAAACTGAAACGGCTCACGAGTCTAGTGAGCCCTAGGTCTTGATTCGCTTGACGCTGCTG; value = 558 a.u.
Oligonucleotide = GAACAGGATCTTTAAAAGGTGATGAAAGATGCATAGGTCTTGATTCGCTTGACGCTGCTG; value = 544 a.u.
Oligonucleotide = GAATTCTATTCTTCCAACGTGCGAAGCGTTCCATAGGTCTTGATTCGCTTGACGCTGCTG; value = 544 a.u.
Oligonucleotide = CTATACGAAAATGTGCATGTTATCTATATCCTTTTCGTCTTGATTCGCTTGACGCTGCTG; value = 533 a.u.
Oligonucleotide = CTACAAGAAGCAACAGCTGAGATATTTGTTTCTTTCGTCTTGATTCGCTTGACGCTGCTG; value = 521 a.u.
Oligonucleotide = CCTAACTACTATAGTCACATTTTATAGCTTCGTACAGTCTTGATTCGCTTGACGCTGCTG; value = 634 a.u.
Oligonucleotide = CTACTACTCATCGGTGACGGCTTTTCTCACTTTTTCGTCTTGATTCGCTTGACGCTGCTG; value = 520 a.u.
Oligonucleotide = CCTAACTACTATACACGCATGGAATAGCTTCGTACAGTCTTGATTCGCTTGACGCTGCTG; value = 541 a.u.
Oligonucleotide = GAACAAACCATAACACCCGTGATGACAACAACATAGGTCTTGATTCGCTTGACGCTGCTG; value = 822 a.u.
Oligonucleotide = GAATCTCCCCCAGGTCACGATATAAATGTCAATTAGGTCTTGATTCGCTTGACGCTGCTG; value = 1190 a.u.
Oligonucleotide = CTAACTTTGTTGTTATCGCTGATGGCGCTCCTCTTCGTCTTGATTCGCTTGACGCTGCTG; value = 498 a.u.
Oligonucleotide = CTATTAAAAACGATTCACGTGATATTCACGTGCTTCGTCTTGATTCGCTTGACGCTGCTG; value = 18800 a.u.
Oligonucleotide = CTATCACAGATTGTTAGCCTGATGTATACAGTATTCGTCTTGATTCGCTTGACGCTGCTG; value = 529 a.u.
Oligonucleotide = CTAAAACGTAGTTAAGGCCACGTGGGAAAGATATTCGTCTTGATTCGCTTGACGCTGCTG; value = 6350 a.u.
Oligonucleotide = GAAGAATTTCGTTGTCACGTTGTTTTGGTAAGTTAGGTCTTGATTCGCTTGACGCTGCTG; value = 2590 a.u.
Oligonucleotide = GAATTGGGTATTCATCATGCGCTGCTGTGGGTATAGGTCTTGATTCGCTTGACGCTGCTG; value = 520 a.u.
Oligonucleotide = GAAGGGGCTTTCGAACGTGTGATAGAAAACTGCTAGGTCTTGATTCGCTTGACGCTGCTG; value = 617 a.u.
